Experimental data from different studies.
Each numbered part is a random draw from the data of one study; scales do not carry over between parts. “And” joins repeats or separate records; there may be more than shown.
Chain of UniProt P36894 (whole entry, looked up): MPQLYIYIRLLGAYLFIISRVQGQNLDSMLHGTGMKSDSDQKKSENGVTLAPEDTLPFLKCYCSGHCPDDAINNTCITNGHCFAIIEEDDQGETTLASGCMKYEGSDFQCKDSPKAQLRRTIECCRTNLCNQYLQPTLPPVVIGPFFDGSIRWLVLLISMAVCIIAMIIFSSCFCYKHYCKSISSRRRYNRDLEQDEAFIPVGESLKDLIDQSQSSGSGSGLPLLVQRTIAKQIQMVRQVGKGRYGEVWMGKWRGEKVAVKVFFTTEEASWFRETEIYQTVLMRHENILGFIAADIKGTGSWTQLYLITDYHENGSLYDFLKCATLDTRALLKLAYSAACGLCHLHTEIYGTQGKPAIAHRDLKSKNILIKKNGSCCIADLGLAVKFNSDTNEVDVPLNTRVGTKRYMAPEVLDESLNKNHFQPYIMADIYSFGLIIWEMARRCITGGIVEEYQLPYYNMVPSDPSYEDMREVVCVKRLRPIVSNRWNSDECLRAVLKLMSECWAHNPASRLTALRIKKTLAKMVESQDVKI
Chain of UniProt Q8WU08 (whole entry, looked up): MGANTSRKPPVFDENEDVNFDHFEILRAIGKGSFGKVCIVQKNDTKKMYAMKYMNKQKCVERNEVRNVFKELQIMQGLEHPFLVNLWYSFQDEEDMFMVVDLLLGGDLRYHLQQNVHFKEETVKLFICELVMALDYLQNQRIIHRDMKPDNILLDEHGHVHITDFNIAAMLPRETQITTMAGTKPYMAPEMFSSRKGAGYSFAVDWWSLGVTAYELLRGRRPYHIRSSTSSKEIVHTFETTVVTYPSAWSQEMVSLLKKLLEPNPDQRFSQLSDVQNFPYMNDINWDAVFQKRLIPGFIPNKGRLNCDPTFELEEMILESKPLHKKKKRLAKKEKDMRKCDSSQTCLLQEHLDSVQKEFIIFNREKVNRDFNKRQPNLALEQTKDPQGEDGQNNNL
Chain of UniProt Q04759 (whole entry, looked up): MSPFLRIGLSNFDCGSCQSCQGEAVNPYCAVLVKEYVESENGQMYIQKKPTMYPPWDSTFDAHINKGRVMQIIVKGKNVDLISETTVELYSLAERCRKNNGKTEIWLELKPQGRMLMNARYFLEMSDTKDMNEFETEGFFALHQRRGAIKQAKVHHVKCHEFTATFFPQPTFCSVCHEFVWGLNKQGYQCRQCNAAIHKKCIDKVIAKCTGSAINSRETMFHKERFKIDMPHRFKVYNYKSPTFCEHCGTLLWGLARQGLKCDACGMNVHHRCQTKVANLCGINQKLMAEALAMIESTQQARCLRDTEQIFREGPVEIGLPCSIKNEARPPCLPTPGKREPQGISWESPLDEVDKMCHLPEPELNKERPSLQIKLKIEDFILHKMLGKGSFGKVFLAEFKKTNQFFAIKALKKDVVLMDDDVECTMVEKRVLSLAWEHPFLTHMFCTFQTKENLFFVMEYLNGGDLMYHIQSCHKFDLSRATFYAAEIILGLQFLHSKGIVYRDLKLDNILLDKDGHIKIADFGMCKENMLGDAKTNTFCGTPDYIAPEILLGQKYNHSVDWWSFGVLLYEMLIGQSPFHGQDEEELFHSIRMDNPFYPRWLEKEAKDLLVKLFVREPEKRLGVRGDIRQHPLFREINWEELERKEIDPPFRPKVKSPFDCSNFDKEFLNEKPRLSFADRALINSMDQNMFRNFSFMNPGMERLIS
Chain of UniProt Q00536 (whole entry, looked up): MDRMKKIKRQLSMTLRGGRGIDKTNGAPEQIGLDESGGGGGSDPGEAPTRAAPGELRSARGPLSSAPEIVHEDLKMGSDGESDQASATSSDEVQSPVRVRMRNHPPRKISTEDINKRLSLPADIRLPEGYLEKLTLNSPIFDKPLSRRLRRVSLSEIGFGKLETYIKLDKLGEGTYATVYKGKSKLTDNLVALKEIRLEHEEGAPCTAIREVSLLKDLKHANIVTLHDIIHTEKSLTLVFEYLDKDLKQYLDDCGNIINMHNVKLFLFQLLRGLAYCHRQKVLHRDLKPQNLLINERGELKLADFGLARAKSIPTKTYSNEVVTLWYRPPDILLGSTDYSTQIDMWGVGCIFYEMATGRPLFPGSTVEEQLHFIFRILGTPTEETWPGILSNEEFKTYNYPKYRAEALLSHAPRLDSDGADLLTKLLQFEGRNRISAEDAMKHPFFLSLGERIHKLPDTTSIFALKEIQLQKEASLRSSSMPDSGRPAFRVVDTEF

Series 1 — cell line: MDA-MB-468; read-out: cell viability; method: CellCounting-Lite; concentration: 222.2 nM; temperature: 37 °C; direction: higher = more viable cells
Compound	luminescence signal
CCn1cnc2c(NCc3nc4cc(Cl)c(Cl)cc4[nH]3)nc(N3CCC(NC(C)=O)CC3)nc21	62000 a.u. and 92200 a.u. and 71800 a.u.
CCn1cnc2c(NCc3nc4cc(Cl)c(Cl)cc4[nH]3)nc(N3CCN(C(=O)c4cccnc4)CC3)nc21	33400 a.u. and 36600 a.u. and 31100 a.u.
CC(=O)N1CCN(c2nc(NCc3nc4cc(Cl)c(Cl)cc4[nH]3)c3ncn(C(C)C)c3n2)CC1	521000 a.u. and 432000 a.u. and 390000 a.u.
CCn1cnc2c(NCc3nc4cc(Cl)c(Cl)cc4[nH]3)nc(N3CCN(S(C)(=O)=O)CC3)nc21	43900 a.u. and 38900 a.u. and 36800 a.u.
CCn1cnc2c(NCc3nc4cc(Cl)c(Cl)cc4[nH]3)nc(N3CCn4ncnc4C3)nc21	39400 a.u. and 43200 a.u. and 37000 a.u.
CCn1cnc2c(NCc3nc4cc(Cl)c(Cl)cc4[nH]3)nc(N3CCN(C(=O)c4ccncc4)CC3)nc21	47300 a.u. and 33600 a.u. and 45400 a.u.
CCn1cnc2c(NCc3nc4cc(Cl)c(Cl)cc4[nH]3)nc(N3CCN(Cc4ccncc4)CC3)nc21	33100 a.u. and 30400 a.u. and 31800 a.u.
CCCCOc1nc(NCc2nc3cc(Cl)c(Cl)cc3[nH]2)c2ncn(CC)c2n1	130000 a.u. and 117000 a.u. and 102000 a.u.
CCn1cnc2c(NCc3nc4cc(Cl)c(Cl)cc4[nH]3)nc(N3CCN(C(=O)c4ccccn4)CC3)nc21	33700 a.u. and 44500 a.u. and 33100 a.u.
CCn1cnc2c(NCc3nc4cc(F)c(F)cc4[nH]3)nc(N3CCn4ncnc4C3)nc21	84900 a.u. and 87800 a.u. and 69600 a.u.
CC(=O)N1CCN(c2nc(NCc3nc4cc(Cl)c(Cl)cc4[nH]3)c3ncn(-c4cnn(C)c4)c3n2)CC1	33000 a.u. and 35100 a.u. and 38400 a.u.
Cn1cc(-n2cnc3c(NCc4nc5cc(Cl)c(Cl)cc5[nH]4)nc(N4CCNCC4)nc32)cn1	42400 a.u. and 39600 a.u. and 43200 a.u.
CCn1cnc2c(NCc3nc4cc(Cl)c(Cl)cc4[nH]3)nc(N3CCN(C(=O)[C@H](C)NC(C)=O)CC3)nc21	44000 a.u. and 39100 a.u. and 42600 a.u.
CCn1cnc2c(NCc3nc4cc(Cl)c(Cl)cc4[nH]3)nc(N3CCN(C(=O)c4ccccc4)CC3)nc21	29500 a.u. and 32000 a.u. and 34400 a.u.
CCn1cnc2c(NCc3nc4cc(Cl)c(Cl)cc4[nH]3)nc(N3CCN(c4ccccn4)CC3)nc21	455000 a.u. and 385000 a.u. and 388000 a.u.
CC(=O)N1CCN(c2nc(NCc3nc4cc(Cl)c(Cl)cc4[nH]3)c3ncn(C)c3n2)CC1	106000 a.u. and 65600 a.u. and 96800 a.u.
CCn1cnc2c(NCc3nc4ccc(F)c(F)c4[nH]3)nc(N3CCn4ncnc4C3)nc21	50600 a.u. and 44000 a.u. and 42400 a.u.
CCn1cnc2c(NCc3nc4cc(Cl)c(Cl)cc4[nH]3)nc(N3CCN(C(=O)CNC(C)=O)CC3)nc21	36000 a.u. and 29700 a.u. and 28500 a.u.

Series 2 — read-out: KRAS-RAF interaction; mode: inhibitor; method: TR-FRET
Structure (SMILES): Cc1ncsc1-c1ccc(C(CO)NC(=O)C2CC(O)CN2C(=O)C(C(C)C)n2cc(-c3ccc(COc4c(-c5c(C)c(F)cc6[nH]ncc56)c(C5CC5)cc5c(N6CC7CC6CN7)nc(OC6CCOCC6)nc45)cc3)nn2)cc1 (stereo not shown)
KRAS with RAF: GTPase KRas, with RAF (KRAS, Homo sapiens, UniProt P01116)
KRAS/VHL with RAF: KRAS/VHL, with RAF (Homo sapiens, UniProt P01116+P40337)
target	concentration	setting	together with	inhibition
KRAS with RAF	3 µM	binary	SOS-mediated nucleotide exchange	9.44% and 11%
KRAS/VHL with RAF	300 nM	ternary, KRAS wild type	VCB complex	39.8% and 38.4%
KRAS with RAF	10 µM	binary	SOS-mediated nucleotide exchange	30.5% and 32.6%
KRAS with RAF	30 nM	binary	SOS-mediated nucleotide exchange	-3.75% and -7.01%
KRAS/VHL with RAF	10 nM	ternary, KRAS wild type	VCB complex	7.13% and 4.35%
KRAS/VHL with RAF	1 µM	ternary, KRAS wild type	VCB complex	58% and 55.3%

Series 3 — read-out: enzyme activity; mode: inhibitor; method: Ub-TR-FRET; medium: HECT domain; concentration: 0.1372 µM; direction: higher = more chain formation
Target: E3 ubiquitin-protein ligase NEDD4, HECT domain (Homo sapiens, UniProt P46934)
Chain of UniProt P46934 (whole entry, looked up): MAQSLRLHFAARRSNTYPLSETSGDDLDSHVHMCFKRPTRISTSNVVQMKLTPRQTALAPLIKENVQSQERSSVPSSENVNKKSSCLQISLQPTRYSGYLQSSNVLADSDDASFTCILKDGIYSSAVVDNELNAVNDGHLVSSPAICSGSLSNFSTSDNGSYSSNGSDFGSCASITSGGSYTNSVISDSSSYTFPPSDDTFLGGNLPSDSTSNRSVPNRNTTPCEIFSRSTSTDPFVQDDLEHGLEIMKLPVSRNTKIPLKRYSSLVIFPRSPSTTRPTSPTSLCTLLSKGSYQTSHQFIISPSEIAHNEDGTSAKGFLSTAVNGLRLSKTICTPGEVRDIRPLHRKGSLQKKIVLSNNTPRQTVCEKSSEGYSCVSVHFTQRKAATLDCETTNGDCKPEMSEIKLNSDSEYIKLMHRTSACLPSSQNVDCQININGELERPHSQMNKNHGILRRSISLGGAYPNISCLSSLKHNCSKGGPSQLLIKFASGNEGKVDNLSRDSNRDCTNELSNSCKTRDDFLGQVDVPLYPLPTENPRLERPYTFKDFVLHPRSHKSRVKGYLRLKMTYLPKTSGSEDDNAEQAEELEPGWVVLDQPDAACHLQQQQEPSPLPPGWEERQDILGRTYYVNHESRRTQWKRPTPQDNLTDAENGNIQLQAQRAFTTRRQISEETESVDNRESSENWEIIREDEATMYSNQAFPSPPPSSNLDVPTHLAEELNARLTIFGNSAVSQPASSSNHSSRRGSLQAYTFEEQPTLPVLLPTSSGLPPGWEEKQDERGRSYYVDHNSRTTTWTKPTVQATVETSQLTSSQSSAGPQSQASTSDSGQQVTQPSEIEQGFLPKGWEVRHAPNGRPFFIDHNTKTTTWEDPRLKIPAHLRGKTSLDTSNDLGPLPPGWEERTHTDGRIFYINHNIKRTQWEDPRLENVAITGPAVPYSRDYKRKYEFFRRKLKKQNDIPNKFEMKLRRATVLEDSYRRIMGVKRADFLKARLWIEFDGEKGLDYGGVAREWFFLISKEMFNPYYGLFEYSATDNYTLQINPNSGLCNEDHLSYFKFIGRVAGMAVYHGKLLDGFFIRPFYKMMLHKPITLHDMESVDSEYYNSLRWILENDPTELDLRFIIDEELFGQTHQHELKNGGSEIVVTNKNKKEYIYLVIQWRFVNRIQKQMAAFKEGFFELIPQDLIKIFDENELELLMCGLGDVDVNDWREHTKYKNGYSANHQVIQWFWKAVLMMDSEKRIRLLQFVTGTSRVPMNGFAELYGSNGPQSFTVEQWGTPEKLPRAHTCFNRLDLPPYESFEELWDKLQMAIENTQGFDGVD
SMILES	ubiquitin chain formation AUC
CCONC(=O)/C=C/CNCCCCN1c2ccccc2CCc2ccc(Cl)cc21.O=C(O)/C=C\C(=O)O	22200 a.u. and 33200 a.u. and 23700 a.u. and 33900 a.u. and 23800 a.u. and 34000 a.u.
CN(C)C/C=C/C(=O)NCCCN1c2ccccc2CCc2ccc(Cl)cc21	130000 a.u. and 133000 a.u. and 129000 a.u.
CONC(=O)/C=C/CNCCCCN1c2ccccc2CCc2ccc(Cl)cc21.O=C(O)/C=C\C(=O)O	60200 a.u. and 59100 a.u. and 57200 a.u. and 37500 a.u. and 37800 a.u. and 37000 a.u.
CCOC(=O)/C=C/CNCCCCN1c2cc(Cl)ccc2CCc2cnn(C)c21.O=C(O)/C=C\C(=O)O	51800 a.u. and 55000 a.u. and 55800 a.u. and 54700 a.u. and 55500 a.u. and 53300 a.u.
CC(C)ONC(=O)/C=C/CNCCCCN1c2ccccc2CCc2ccc(Cl)cc21.O=C(O)/C=C\C(=O)O	36400 a.u. and 30300 a.u. and 30200 a.u. and 31400 a.u. and 36200 a.u. and 36300 a.u.
Cl.NC(=O)/C=C/CNCCCN1c2ccccc2CCc2ccc(Cl)cc21	139000 a.u.
CCOC(=O)/C=C/CN(CC)CCCCN1c2ccccc2CCc2ccc(Cl)cc21.O=C(O)/C=C\C(=O)O	89800 a.u. and 90800 a.u. and 87900 a.u. and 96000 a.u. and 98300 a.u. and 93200 a.u.
CNCCCN1c2ccccc2CCc2ccc(Cl)cc21	145000 a.u. and 146000 a.u.

Series 4 — read-out: thermal unfolding; method: differential scanning fluorimetry; concentration: 5.5 µM; direction: higher = more unfolded
SMILES: C[C@@H]1CN(c2ccc(-c3cc(C(=O)NCCOCCOCCOCCOCCOCCOCCNC(=O)/C=C/c4[nH]cc(C(=O)N[C@@H](CC(N)=O)c5ccc(F)c(Cl)c5)c4-c4ccc(Cl)cc4F)ccc3F)cc2NC(=O)c2ccc(F)cc2C(F)(F)F)C[C@H](C)N1C
WDR5: WD repeat-containing protein 5 (WDR5, Homo sapiens, UniProt P61964)
DCAF1: DDB1- and CUL4-associated factor 1 (DCAF1, Homo sapiens, UniProt Q9Y4B6)
Chain of UniProt Q9Y4B6 (whole entry, looked up): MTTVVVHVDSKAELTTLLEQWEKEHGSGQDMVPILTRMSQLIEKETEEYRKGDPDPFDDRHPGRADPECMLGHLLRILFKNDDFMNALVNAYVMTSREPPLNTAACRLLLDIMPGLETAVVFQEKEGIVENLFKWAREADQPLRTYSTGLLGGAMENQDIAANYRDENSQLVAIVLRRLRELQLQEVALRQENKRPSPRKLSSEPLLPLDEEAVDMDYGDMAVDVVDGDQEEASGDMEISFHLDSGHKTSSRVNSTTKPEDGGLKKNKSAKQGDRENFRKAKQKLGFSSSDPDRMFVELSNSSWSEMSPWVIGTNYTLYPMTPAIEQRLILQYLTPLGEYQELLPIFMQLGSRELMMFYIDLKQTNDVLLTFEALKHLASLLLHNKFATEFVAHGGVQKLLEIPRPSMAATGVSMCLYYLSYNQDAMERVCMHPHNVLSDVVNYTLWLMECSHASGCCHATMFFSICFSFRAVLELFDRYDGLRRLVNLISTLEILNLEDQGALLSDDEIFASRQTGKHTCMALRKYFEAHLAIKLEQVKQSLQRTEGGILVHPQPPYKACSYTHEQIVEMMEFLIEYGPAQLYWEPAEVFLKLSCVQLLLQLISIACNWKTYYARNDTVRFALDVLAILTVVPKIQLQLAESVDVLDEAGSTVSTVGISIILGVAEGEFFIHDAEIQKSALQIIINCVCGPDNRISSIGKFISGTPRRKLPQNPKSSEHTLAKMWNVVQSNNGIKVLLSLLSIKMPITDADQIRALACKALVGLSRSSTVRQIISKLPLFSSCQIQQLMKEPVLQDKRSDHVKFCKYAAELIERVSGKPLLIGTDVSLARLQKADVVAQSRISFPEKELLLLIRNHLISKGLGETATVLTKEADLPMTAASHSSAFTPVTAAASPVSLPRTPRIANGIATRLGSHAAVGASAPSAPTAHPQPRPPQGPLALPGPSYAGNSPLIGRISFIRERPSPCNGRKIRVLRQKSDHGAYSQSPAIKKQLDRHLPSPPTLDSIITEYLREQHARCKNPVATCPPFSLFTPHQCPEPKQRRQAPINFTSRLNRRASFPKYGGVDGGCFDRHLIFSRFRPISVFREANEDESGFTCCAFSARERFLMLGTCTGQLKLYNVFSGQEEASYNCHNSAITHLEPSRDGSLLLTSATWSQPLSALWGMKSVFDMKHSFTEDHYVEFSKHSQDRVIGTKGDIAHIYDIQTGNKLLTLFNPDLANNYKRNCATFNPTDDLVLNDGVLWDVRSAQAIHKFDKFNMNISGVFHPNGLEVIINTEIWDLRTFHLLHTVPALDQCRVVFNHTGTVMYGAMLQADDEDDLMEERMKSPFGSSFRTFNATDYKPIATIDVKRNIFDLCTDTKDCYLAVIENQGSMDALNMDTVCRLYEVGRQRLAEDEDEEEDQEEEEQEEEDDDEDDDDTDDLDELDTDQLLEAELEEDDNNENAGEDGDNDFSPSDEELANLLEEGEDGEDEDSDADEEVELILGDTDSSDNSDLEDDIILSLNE
target	temperature	SYPRO Orange fluorescence [a.u.]
WDR5	63.21 °C	15400
WDR5	50.4 °C	16500
DCAF1	89.61 °C	32600
DCAF1	40 °C	11400
DCAF1	58.61 °C	41300
WDR5	86.81 °C	59600
WDR5	62.01 °C	15200
WDR5	58.41 °C	15700
WDR5	53.21 °C	16600
WDR5	90.41 °C	54400
WDR5	45.8 °C	14800

Series 5 — concentration: 1 µM
SMILES: CC[C@@]1(c2ccccc2)C2=C(CC(C)(C)CC2=O)Nc2n[nH]cc21
target	read-out	method	reference	remaining binding [%]
TLK2 (Homo sapiens, UniProt Q86UE8)	binding	competition with immobilised ligand	–	97
LIM domain kinase 1 (LIMK1, Homo sapiens, UniProt P53667)	kinase binding	KINOMEscan	DMSO control	89
NEK4 (Homo sapiens, UniProt P51957)	kinase binding	KINOMEscan	DMSO control	100
CDK16 (Homo sapiens, UniProt Q00536)	kinase binding	KINOMEscan	DMSO control	100
PRKCQ (Homo sapiens, UniProt Q04759)	binding	competition with immobilised ligand	–	73
BMPR1A (Homo sapiens, UniProt P36894)	kinase binding	KINOMEscan	DMSO control	100
MAP4K3 (Homo sapiens, UniProt Q8IVH8)	kinase binding	KINOMEscan	DMSO control	96
EPHB4 (Homo sapiens, UniProt P54760)	binding	competition with immobilised ligand	–	100
STK32A (Homo sapiens, UniProt Q8WU08)	kinase binding	KINOMEscan	DMSO control	100

Series 6 — read-out: binding; mode: competitor; method: NanoBRET; cell line: HEK293
Compound: CN1CCC[C@H]1COc1nc2c(c(N3CCN(C(=O)C(F)(F)F)[C@@H](CC#N)C3)n1)CCN(c1cccc3cccc(Cl)c13)C2
KRAS Q61R: GTPase KRas (KRAS, Homo sapiens, UniProt P01116, Q61R)
KRAS G12D: GTPase KRas (KRAS, Homo sapiens, UniProt P01116, G12D)
target	concentration	normalized BRET
KRAS Q61R	45.7 nM	103% and 98.6% and 89.6%
KRAS Q61R	412 nM	106% and 88% and 91.6%
KRAS G12D	11.1 µM	101% and 96.5% and 138%
KRAS Q61R	33.3 µM	120% and 113% and 117%
GTPase KRas (KRAS, Homo sapiens, UniProt P01116, G13D)	11.1 µM	24.1% and 46.3% and 43.2% and 15.5%
KRAS G12D	45.7 nM	108% and 92% and 95.7%

Series 7 — mode: degrader; method: automated immunoblot; cell line: HCC1569; time: 24 h
Target: Membrane-associated tyrosine- and threonine-specific cdc2-inhibitory kinase (PKMYT1, Homo sapiens, UniProt Q99640)
Residues (Q99640 1-499): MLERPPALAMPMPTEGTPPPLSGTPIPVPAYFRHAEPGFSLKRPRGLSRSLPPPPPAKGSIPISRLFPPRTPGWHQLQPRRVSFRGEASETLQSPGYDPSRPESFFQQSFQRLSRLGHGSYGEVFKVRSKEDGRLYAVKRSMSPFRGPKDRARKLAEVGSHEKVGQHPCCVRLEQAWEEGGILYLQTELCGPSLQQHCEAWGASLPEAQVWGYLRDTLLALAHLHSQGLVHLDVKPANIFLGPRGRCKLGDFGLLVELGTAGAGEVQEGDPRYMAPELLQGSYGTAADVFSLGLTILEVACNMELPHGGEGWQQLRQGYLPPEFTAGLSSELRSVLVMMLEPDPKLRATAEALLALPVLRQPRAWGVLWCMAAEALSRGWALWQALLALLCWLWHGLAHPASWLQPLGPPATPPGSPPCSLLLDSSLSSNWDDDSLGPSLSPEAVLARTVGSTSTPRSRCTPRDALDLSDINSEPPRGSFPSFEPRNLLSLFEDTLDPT
SMILES	Dmax [%]
Cc1ccc(O)c(C)c1-c1cnc2[nH]c(-c3cnc(N4CCC(CN5CCC(c6ccc(NC7CCC(=O)NC7=O)cc6F)CC5)CC4)nc3)cc2c1C#N (stereo not shown)	86
Cc1ccc(O)c(C)c1-c1cnc2[nH]c(-c3cnc(N4CCC(CCN5CCN(c6ccc(NC7CCC(=O)NC7=O)cc6F)CC5)CC4)nc3)cc2c1C#N (stereo not shown)	87
Cc1ccc(O)c(C)c1-c1cnc2[nH]c(-c3cnc(N4CCC(CN5CCN(c6ccc7c(c6F)CN(C6CCC(=O)NC6=O)C7=O)CC5)CC4)nc3)cc2c1C#N (stereo not shown)	92
Cc1ccc(O)c(C)c1-c1cnc2[nH]c(-c3cnc(N4CC5(CC(CN6CCN(c7ccc(NC8CCC(=O)NC8=O)cc7F)CC6)C5)C4)nc3)cc2c1C#N (stereo not shown)	66
Cc1ccc(O)c(C)c1-c1cnc2[nH]c(-c3cnc(N4CCC5(CC4)CC(CN4CCN(c6ccc(NC7CCC(=O)NC7=O)cc6F)CC4)C5)nc3)cc2c1C#N (stereo not shown)	91
Cc1ccc(O)c(C)c1-c1cnc2[nH]c(-c3cnc(N4CCC5(CC4)CC(N4CCN(c6ccc(N[C@H]7CCC(=O)NC7=O)cc6F)CC4)CO5)nc3)cc2c1C#N (single isomer, unassigned)	90

For quick reference, copied from above (series 4):
target	temperature	SYPRO Orange fluorescence [a.u.]
WDR5	45.8 °C	14800
WDR5	62.01 °C	15200
WDR5	90.41 °C	54400
DCAF1	89.61 °C	32600
DCAF1	58.61 °C	41300
WDR5	53.21 °C	16600
WDR5	50.4 °C	16500
WDR5	86.81 °C	59600
WDR5	58.41 °C	15700
WDR5	63.21 °C	15400
